Measured values from different studies.
Every numbered part comes from another study and shows a few of its results, in no order.
UniProt Q86Z02, sequence (whole entry, looked up): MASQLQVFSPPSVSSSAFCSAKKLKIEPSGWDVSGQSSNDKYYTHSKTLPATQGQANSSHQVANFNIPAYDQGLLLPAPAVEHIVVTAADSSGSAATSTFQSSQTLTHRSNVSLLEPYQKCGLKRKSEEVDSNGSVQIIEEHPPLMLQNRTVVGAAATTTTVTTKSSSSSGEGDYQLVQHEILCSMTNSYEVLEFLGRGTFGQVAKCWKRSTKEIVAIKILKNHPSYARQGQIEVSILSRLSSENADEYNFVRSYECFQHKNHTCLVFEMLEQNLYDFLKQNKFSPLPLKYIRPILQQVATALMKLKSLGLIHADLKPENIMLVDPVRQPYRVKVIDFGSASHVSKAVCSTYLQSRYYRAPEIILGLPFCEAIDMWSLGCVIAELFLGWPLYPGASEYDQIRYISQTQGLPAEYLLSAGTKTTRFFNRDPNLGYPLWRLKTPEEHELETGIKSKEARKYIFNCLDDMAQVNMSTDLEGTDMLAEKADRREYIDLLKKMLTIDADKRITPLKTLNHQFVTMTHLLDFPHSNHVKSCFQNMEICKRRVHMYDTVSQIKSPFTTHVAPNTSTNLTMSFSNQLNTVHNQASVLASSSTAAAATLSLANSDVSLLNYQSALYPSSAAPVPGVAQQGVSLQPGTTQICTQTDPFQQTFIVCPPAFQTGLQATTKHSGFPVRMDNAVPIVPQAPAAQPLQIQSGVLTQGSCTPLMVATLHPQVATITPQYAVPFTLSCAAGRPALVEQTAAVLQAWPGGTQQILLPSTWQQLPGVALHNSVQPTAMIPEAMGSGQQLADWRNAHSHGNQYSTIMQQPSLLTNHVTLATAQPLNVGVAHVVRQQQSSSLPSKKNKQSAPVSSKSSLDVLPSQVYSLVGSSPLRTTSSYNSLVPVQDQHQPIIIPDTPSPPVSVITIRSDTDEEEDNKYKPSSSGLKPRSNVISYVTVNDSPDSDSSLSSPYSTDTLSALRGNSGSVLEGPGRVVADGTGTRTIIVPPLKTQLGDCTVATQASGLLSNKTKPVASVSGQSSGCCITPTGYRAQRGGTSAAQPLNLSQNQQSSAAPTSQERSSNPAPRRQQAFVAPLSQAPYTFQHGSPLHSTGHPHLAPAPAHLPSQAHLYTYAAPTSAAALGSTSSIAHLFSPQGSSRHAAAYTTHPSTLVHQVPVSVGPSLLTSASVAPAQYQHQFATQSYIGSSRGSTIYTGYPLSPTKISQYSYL
UniProt Q00536, sequence (whole entry, looked up): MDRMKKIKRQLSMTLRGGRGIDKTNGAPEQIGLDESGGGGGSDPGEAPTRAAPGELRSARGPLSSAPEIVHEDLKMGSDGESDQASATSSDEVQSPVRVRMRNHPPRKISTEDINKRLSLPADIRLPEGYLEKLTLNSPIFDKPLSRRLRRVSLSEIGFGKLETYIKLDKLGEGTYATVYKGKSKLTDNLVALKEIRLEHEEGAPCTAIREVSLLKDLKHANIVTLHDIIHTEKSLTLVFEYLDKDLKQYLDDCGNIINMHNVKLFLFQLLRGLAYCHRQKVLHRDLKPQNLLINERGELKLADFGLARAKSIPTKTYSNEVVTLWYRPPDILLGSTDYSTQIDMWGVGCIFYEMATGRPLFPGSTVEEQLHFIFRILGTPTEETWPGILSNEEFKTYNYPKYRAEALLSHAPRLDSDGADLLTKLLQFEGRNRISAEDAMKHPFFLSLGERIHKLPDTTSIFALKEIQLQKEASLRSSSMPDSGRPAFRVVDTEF
UniProt O14578, sequence (whole entry, looked up): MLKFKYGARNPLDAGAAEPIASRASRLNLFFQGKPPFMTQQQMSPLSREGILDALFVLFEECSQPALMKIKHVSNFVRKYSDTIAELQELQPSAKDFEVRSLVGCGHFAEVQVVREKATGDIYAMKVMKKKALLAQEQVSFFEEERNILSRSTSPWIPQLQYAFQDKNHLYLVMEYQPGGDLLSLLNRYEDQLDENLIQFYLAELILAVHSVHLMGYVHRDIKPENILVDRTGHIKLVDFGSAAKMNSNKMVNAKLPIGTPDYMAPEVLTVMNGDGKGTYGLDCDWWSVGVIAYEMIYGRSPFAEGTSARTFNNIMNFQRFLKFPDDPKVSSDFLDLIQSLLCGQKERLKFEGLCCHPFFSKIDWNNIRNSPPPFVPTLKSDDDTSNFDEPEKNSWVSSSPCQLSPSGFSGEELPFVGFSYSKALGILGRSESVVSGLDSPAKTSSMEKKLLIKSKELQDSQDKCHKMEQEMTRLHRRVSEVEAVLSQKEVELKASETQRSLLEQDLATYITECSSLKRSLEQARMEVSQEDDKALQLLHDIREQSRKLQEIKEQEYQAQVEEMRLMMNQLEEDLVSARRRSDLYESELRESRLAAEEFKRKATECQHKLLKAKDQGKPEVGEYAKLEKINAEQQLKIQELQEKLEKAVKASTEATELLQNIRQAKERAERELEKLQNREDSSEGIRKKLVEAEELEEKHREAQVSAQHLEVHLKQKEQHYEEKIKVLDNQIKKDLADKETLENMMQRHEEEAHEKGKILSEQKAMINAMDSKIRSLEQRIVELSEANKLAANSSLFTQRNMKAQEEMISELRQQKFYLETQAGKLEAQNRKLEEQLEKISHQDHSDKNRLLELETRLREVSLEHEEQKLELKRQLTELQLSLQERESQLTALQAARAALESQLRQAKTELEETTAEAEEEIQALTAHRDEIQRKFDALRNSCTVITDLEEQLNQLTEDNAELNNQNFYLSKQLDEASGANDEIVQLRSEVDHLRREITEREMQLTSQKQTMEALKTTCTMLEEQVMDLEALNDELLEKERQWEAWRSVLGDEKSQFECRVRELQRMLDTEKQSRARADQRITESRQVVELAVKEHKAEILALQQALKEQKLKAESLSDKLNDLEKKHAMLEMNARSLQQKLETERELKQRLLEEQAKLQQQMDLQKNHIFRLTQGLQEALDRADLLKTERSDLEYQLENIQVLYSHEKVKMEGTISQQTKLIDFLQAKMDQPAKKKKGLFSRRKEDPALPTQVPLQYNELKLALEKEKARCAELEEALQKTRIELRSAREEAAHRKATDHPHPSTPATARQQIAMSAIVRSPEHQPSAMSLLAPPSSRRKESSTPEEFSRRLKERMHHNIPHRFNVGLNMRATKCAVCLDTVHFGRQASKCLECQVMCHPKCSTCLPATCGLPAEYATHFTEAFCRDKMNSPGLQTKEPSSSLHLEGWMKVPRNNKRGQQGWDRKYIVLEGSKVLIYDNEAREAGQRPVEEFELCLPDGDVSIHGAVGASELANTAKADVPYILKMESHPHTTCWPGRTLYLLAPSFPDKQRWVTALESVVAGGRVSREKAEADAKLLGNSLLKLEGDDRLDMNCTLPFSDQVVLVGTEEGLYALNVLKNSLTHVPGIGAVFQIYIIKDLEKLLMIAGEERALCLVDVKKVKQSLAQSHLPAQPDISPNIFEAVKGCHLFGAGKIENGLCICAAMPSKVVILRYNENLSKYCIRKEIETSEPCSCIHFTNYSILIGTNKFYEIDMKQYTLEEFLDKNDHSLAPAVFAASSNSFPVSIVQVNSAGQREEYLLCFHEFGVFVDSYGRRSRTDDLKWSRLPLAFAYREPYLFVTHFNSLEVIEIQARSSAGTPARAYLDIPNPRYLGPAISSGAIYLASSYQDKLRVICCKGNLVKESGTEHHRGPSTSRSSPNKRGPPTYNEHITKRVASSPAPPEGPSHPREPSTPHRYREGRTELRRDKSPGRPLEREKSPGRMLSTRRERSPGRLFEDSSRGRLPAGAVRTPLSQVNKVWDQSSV

Sample 1 — effect on: enzyme activity; concentration: 10 µM
SMILES: Cc1sc(C(=O)NC2COC2)cc1-n1cc(NC(=O)Nc2c(F)cccc2Cl)cn1
For LIM domain kinase 2 (LIMK2, Homo sapiens, UniProt P53671); reference: untreated control: remaining activity read 98.2%.
It gave 100% for remaining activity (EPHA2 (Homo sapiens, UniProt P29317); reference: untreated control).
The remaining activity was 96.6% (MAP4K5 (Homo sapiens, UniProt Q9Y4K4); reference: untreated control).
HIPK3 (Homo sapiens, UniProt Q9H422); reference: untreated control — remaining activity: 84.9%.
The remaining activity was 90.5% (WNK2 (Homo sapiens, UniProt Q9Y3S1); reference: untreated control).
For FGR (Homo sapiens, UniProt P09769); reference: untreated control: remaining activity read 71%.
For EPHB1 (Homo sapiens, UniProt P54762); reference: untreated control: remaining activity read 98.7%.
It gave 90.9% for remaining activity (TEC (Homo sapiens, UniProt P42680); reference: untreated control).
The remaining activity was 83.9% (NLK (Homo sapiens, UniProt Q9UBE8); reference: untreated control).
It gave 102% for remaining activity (PDGFRA (Homo sapiens, UniProt P16234); reference: untreated control).
It gave 115% for remaining activity (HIPK1 (Homo sapiens, UniProt Q86Z02); reference: untreated control).
CIT (Homo sapiens, UniProt O14578); inhibitor — remaining activity: 98.8%.
MYLK2 (Homo sapiens, UniProt Q9H1R3); reference: untreated control — remaining activity: 78.5%.
ERBB2 (Homo sapiens, UniProt P04626); reference: untreated control — remaining activity: 63.3%.

Sample 2 — technique: competition with immobilised ligand; concentration: 1 µM
SMILES: CO[C@@H](C)c1c(Nc2ccc([C@H](N(C)C(=O)C3CCS(=O)(=O)CC3)C(F)(F)F)cc2)cnc2cc(Cl)nn12
The remaining binding was 100% (EGFR (Homo sapiens, UniProt P00533, G719S); cell-free assay).
It gave 87% for remaining binding (TXK (Homo sapiens, UniProt P42681); binding).
It gave 66% for remaining binding (CDK16 (Homo sapiens, UniProt Q00536); cell-free assay).
RET (Homo sapiens, UniProt P07949, V804L); cell-free assay — remaining binding: 86%.
The remaining binding was 57% (CDKL1 (Homo sapiens, UniProt Q00532); cell-free assay).
It gave 98% for remaining binding (Mast/stem cell growth factor receptor Kit, autoinhibited (KIT, Homo sapiens, UniProt P10721); cell-free assay).
DAPK2 (Homo sapiens, UniProt Q9UIK4); cell-free assay — remaining binding: 86%.
It gave 100% for remaining binding (MARK3 (Homo sapiens, UniProt P27448); cell-free assay).
The remaining binding was 100% (KDR (Homo sapiens, UniProt P35968); cell-free assay).
The remaining binding was 100% (TNIK (Homo sapiens, UniProt Q9UKE5); cell-free assay).
SBK3 (Homo sapiens, UniProt P0C264); cell-free assay — remaining binding: 84%.
It gave 100% for remaining binding (PAK3 (Homo sapiens, UniProt O75914); cell-free assay).
For SRMS (Homo sapiens, UniProt Q9H3Y6); cell-free assay: remaining binding read 95%.
The remaining binding was 74% (RIPK2 (Homo sapiens, UniProt O43353); cell-free assay).
The remaining binding was 100% (NEK11 (Homo sapiens, UniProt Q8NG66); cell-free assay).

Sample 3 — effect on: enzyme activity; action: inhibitor; concentration: 0.5 µM; reference: control
Target: Tyrosine-protein kinase ZAP-70 (ZAP70, Homo sapiens, UniProt P43403)
Construct (P43403 1-619): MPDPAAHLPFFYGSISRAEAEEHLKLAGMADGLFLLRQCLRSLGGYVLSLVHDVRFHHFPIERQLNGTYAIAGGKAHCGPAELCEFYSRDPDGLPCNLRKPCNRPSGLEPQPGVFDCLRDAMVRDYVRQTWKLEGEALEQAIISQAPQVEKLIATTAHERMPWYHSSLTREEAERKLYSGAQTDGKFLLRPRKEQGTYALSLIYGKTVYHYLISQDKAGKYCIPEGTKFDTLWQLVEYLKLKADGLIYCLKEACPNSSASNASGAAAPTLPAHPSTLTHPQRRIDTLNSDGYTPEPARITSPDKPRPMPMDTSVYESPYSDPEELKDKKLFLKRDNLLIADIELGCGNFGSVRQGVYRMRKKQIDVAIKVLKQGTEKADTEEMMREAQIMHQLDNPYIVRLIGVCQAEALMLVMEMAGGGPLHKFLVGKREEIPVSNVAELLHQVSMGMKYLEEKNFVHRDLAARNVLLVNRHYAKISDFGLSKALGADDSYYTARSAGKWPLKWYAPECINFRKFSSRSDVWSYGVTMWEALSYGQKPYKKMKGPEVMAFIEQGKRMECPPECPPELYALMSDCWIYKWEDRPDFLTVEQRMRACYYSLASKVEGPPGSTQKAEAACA
With `CSc1nc(-c2ccnc(N[C@@H](C)c3ccccc3)c2)c(-c2ccc(F)cc2)[nH]1` (racemic) the remaining activity was 102%.
For `CC#CC(=O)Nc1cc2c(Nc3ccc(F)c(Cl)c3)ncnc2cn1`, the remaining activity was 90.4%.
`Fc1ccc(-c2nc3n(c2-c2ccncc2)CCS3)cc1` has a remaining activity of 107%.
The remaining activity of `Nc1nccc(-c2c(-c3ccc(F)cc3)ncn2C2CCNCC2)n1` is reported as 92.3%.
`CCc1[nH]c(-c2ccc(OC)cc2)nc1-c1ccncc1` has a remaining activity of 101%.
For `Oc1ccc(Nc2nc(-c3ccc(Cl)cc3)cs2)cc1`, the remaining activity was 94.7%.
`Cc1cncc2cccc(S(=O)(=O)N3CCCN(C(=O)CN)C[C@@H]3C)c12` has a remaining activity of 102%.
`Cc1cc(Nc2nc(-c3ccccc3)nc3ccccc23)n[nH]1` gave a remaining activity of 105%.
`COc1ccc(S(=O)(=O)N(CCO)c2ccccc2CN(C)CC=Cc2ccc(Cl)cc2)cc1` gave a remaining activity of 84.7%.
`Cc1ccc(NC2=CC(=O)c3sc(C)nc3C2=O)cc1` gave a remaining activity of 95.4%.
`COc1cc(Nc2c(C#N)cnc3cc(OCCCN4CCN(C)CC4)c(OC)cc23)c(Cl)cc1Cl` gave a remaining activity of 101%.
`CC(C)(C)n1nc(Cc2cccc3ccccc23)c2c(N)ncnc21` gave a remaining activity of 84.6%.
With `O=C1Cc2c([nH]c3ccc([N+](=O)[O-])cc23)-c2ccccc2N1` the remaining activity was 91.4%.
`Nc1ncnc2c1cnn2-c1ccccc1` has a remaining activity of 91.5%.
`NC(=O)c1ccc(N(C(N)=O)c2c(F)cccc2F)nc1-c1ccc(F)cc1F` gave a remaining activity of 100%.
`CC[n+]1c(/C=C/N(C)c2ccccc2)n(-c2ccccc2)c2ccc(-c3nc4ccccc4s3)cc21` has a remaining activity of 95.5%.
`CCCC(=O)Oc1ccc2[nH]c(C(=O)c3cc4ccccc4[nH]3)cc2c1` has a remaining activity of 100%.
The remaining activity of `N#CC(=C(N)Sc1ccc(N)cc1)c1ccccc1C(F)(F)F` is reported as 102%.
The remaining activity of `CC(=O)c1ccc(N2CCOCC2)cc1O` is reported as 99.5%.
For `O=S(=O)(NCCNC/C=C/c1ccc(Br)cc1)c1cccc2cnccc12`, the remaining activity was 97.9%.

Sample 4
Compound: COc1cc(C(=O)N2CCC(N3CCN(C)CC3)CC2)ccc1Nc1ncc2c(n1)N(C)c1ccccc1C(=O)N2C
Lyn (Mus musculus, UniProt P25911); KiNativ profiling; mouse brain lysate; 1 µM, LYS1 site, with: ATP acyl phosphate probe — inhibition: -2.6%.
It gave 12.5% for inhibition (ATR (mouse); probe labelling, KiNativ, item: FYIMMCkPK peptide, ATP site; brain tissue lysate (mouse); 0.1 µM, with: ADP acyl-phosphate probe).
For CDK9 (mouse); probe labelling, KiNativ, item: DMkAANVLITR peptide, LYS2 site; brain tissue lysate (mouse); 1 µM, with: ADP acyl-phosphate probe: inhibition read -1.4%.
For NUAK2 human; KiNativ profiling; human PBMC lysate; concentration not given, ATP probe, Lys1 site: inhibition read 2%.
The inhibition was -12% (human PBMC; probe labeling, inhibitor, KiNativ profiling, item: FYAVkVLQK; cell lysate; concentration not given, LYS1 site, with: ADP acyl-phosphate probe 0.1 µM).
human PBMC; probe labeling, inhibitor, KiNativ profiling, item: DLkPQNLLINR; cell lysate; 1 µM, LYS2 site, with: ATP acyl-phosphate probe — inhibition: -6.1%.
The inhibition was -1.9% (MAP3K2 (human); probe labelling, KiNativ ATP probe; human PBMC lysate; concentration not given, LYS1 labelled site).
For SLK mouse; KiNativ profiling; mouse brain lysate; 0.1 µM, LYS1 site, with: ATP acyl phosphate probe: inhibition read 2%.
For human PBMC; probe labeling, inhibitor, KiNativ profiling; cell lysate; concentration not given, LYS1 site, with: ADP acyl-phosphate probe 1 µM: inhibition read 2%.
For KHS1; 1 µM: inhibition read 18.4%.
The inhibition was 13.5% (PHKg2 (mouse); probe labelling, KiNativ, item: Lys1 site peptide; brain tissue lysate (mouse); 1 µM, with: ATP acyl-phosphate probe).
For MARK3 and MARK4 (mouse); probe labelling, KiNativ, item: EVAIkIIDK peptide, LYS1 site; brain tissue lysate (mouse); 1 µM, with: ATP acyl-phosphate probe: inhibition read -12.2%.
SYK human; KiNativ profiling; human PBMC; 1 µM, DFG motif site, with: ATP acyl phosphate probe — inhibition: -1%.
It gave 3% for inhibition (YANK1/YANK2/YANK3 (mouse); probe labelling, inhibitor, KiNativ ActivX ADP probe; mouse brain lysate; 1 µM, Lys1 site peptide).
For RSK2 domain 1 (mouse); probe labelling, inhibitor, KiNativ ActivX ATP probe; mouse brain lysate; 0.1 µM, activation loop peptide: inhibition read 1%.
The inhibition was -4.4% (mouse ROCK1 and ROCK2; probe labelling, KiNativ ATP probe; mouse brain lysate; 1 µM, LYS2 site DVkPDNMLLDK).
The inhibition was 23.9% (CASK (mouse); probe labelling, KiNativ ATP probe; mouse brain lysate; 0.1 µM, LYS1 labelled site).

A few entries again (sample 2):
It gave 66% for remaining binding (CDK16 (Homo sapiens, UniProt Q00536); cell-free assay).
The remaining binding was 100% (TNIK (Homo sapiens, UniProt Q9UKE5); cell-free assay).
It gave 98% for remaining binding (Mast/stem cell growth factor receptor Kit, autoinhibited (KIT, Homo sapiens, UniProt P10721); cell-free assay).
It gave 87% for remaining binding (TXK (Homo sapiens, UniProt P42681); binding).
RET (Homo sapiens, UniProt P07949, V804L); cell-free assay — remaining binding: 86%.
It gave 100% for remaining binding (MARK3 (Homo sapiens, UniProt P27448); cell-free assay).
The remaining binding was 100% (NEK11 (Homo sapiens, UniProt Q8NG66); cell-free assay).
The remaining binding was 100% (EGFR (Homo sapiens, UniProt P00533, G719S); cell-free assay).
For SRMS (Homo sapiens, UniProt Q9H3Y6); cell-free assay: remaining binding read 95%.
The remaining binding was 74% (RIPK2 (Homo sapiens, UniProt O43353); cell-free assay).
DAPK2 (Homo sapiens, UniProt Q9UIK4); cell-free assay — remaining binding: 86%.
